Published values from different studies.
Compare with care: the assays were run in different laboratories. ± marks the error that the study gave.
Cell line: HeLa

Under “G1 phase cells”, CC(=O)N[C@@H](CS)C(=O)O is recorded as 50.3 ± 1.1% (PI flow cytometry; concentration not given, 48 h).
With C[C@@H]1CC[C@@H]([C@@](O)(CNCc2ccccc2)COCc2ccccc2)[C@H](OCc2ccccc2)C1 the IC50 was 2.27 µM (cell growth, inhibitor, MTT; 72 h).
Clc1nc(Cl)c2[nH]cnc2n1 has a GFP/RFP ratio of 0.3 (splicing reporter, measured: GLA; 10 µM, 18 h).
For CN1CC[C@H](c2c(O)cc(O)c3c(=O)cc(-c4ccccc4Cl)oc23)[C@H](O)C1, mRNA level read “no effect” (RT-qPCR, measured: cyclin A, Cdc2; 10 nM, overnight).
C[C@@H]1CC[C@@H]([C@@](C)(O)Cn2cnc3ccccc32)[C@H](OCc2ccccc2)C1 gave an IC50 of 6.46 µM (cell growth, inhibitor, MTT; 72 h).
COc1ccc(NC(=S)N/N=C/c2cccc3cc4ccccc4nc23)cc1 — result for “G2/M phase cells”: 13.3 ± 3.7% (PI flow cytometry; IC50, 48 h, with: N-acetylcysteine).
For C[C@@H]1CC[C@@H]([C@](O)(CNCc2ccccc2)COCc2ccc(F)cc2)[C@H](OCc2ccc(F)cc2)C1, the IC50 was 1.34 µM (cell growth, inhibitor, MTT; 72 h).
Under protein interaction, O=C(NC[C@H](O)CN1CCc2ccccc2C1)c1cc(NC2COC2)ncn1 is recorded as “decreased” (co-immunoprecipitation, western blot, measured: SNRNP200 with GFP-SART3; 10 µM, 3 days).
Clc1nc(NCc2ccco2)c2ccccc2n1 has a GFP/RFP ratio of 0.4 (splicing reporter, measured: GLA; 10 µM, 18 h).

Excerpt of the above:
With C[C@@H]1CC[C@@H]([C@@](O)(CNCc2ccccc2)COCc2ccccc2)[C@H](OCc2ccccc2)C1 the IC50 was 2.27 µM (cell growth, inhibitor, MTT; 72 h).
